Experimental data collected from several papers.
A part holds a random share of what one study measured.
UniProt P36897, sequence (whole entry, looked up): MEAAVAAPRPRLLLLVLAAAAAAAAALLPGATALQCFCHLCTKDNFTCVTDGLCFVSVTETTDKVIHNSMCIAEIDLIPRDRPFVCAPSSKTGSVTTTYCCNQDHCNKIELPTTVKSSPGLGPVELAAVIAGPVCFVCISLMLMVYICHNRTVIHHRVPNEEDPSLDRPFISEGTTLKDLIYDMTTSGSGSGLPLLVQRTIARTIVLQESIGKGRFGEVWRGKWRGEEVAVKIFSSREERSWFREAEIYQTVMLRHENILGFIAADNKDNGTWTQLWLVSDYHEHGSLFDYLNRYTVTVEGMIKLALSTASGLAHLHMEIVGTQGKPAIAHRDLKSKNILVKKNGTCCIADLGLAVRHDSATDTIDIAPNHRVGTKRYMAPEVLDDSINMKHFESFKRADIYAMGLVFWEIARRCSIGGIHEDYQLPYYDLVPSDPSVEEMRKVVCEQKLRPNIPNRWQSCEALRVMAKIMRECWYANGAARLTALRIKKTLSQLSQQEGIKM
UniProt Q04759, sequence (whole entry, looked up): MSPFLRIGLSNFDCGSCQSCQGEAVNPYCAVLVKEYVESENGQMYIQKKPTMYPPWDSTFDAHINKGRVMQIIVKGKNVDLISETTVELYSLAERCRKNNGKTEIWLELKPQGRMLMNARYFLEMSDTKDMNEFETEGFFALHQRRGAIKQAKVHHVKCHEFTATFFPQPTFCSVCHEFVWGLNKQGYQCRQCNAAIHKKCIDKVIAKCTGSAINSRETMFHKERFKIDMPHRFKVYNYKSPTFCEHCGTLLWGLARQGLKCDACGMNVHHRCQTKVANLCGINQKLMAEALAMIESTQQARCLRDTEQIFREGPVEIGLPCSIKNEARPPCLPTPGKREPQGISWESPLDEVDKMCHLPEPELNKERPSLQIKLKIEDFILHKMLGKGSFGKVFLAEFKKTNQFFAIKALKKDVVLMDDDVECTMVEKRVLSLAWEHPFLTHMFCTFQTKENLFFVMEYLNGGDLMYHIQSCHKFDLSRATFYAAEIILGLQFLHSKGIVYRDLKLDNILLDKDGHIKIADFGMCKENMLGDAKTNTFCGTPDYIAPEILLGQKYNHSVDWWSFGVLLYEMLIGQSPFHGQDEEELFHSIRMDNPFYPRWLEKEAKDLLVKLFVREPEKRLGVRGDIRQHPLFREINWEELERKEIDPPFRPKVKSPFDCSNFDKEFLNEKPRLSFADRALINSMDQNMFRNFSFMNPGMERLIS
UniProt P54753, sequence (whole entry, looked up): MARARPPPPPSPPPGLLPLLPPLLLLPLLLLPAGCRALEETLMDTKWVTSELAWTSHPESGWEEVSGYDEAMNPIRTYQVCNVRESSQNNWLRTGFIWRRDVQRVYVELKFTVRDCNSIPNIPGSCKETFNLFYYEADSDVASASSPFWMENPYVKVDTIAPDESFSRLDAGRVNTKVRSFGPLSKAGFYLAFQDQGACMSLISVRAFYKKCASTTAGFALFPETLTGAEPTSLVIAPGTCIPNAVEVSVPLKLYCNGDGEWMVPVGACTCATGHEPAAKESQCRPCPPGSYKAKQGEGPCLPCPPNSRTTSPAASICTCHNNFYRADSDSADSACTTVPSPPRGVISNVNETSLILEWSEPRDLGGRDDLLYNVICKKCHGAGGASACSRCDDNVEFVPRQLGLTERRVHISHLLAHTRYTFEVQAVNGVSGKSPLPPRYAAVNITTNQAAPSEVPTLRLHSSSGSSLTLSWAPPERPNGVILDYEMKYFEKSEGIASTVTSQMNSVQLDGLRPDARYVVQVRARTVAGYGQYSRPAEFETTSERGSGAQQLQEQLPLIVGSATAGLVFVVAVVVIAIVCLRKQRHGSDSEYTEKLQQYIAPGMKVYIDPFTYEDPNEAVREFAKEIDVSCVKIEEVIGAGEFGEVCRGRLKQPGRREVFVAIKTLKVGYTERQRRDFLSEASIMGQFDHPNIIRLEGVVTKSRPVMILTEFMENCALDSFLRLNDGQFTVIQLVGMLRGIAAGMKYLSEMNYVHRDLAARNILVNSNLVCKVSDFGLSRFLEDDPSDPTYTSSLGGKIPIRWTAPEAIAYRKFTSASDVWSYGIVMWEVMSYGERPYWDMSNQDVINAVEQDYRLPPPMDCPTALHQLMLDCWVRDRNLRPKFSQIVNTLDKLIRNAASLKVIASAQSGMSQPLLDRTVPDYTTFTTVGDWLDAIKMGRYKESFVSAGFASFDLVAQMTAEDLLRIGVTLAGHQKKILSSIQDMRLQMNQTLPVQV
UniProt Q9UPZ9, sequence (whole entry, looked up): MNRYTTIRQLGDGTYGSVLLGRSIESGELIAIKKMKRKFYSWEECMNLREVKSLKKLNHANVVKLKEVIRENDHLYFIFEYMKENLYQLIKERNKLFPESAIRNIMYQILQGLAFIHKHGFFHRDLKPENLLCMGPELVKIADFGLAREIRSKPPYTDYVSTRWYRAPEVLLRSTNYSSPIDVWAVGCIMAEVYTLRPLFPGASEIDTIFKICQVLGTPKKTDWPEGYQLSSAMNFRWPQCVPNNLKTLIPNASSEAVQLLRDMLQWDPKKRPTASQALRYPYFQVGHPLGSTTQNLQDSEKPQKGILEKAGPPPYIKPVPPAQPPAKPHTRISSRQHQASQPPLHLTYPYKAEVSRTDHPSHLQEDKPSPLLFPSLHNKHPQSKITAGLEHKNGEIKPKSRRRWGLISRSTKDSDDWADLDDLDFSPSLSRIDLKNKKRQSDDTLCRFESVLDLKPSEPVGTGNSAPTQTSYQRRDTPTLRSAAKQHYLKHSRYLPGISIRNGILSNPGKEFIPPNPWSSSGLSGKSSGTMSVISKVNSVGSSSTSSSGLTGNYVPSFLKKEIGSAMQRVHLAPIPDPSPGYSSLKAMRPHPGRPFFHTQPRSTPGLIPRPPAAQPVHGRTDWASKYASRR
UniProt Q9Y616, sequence (whole entry, looked up): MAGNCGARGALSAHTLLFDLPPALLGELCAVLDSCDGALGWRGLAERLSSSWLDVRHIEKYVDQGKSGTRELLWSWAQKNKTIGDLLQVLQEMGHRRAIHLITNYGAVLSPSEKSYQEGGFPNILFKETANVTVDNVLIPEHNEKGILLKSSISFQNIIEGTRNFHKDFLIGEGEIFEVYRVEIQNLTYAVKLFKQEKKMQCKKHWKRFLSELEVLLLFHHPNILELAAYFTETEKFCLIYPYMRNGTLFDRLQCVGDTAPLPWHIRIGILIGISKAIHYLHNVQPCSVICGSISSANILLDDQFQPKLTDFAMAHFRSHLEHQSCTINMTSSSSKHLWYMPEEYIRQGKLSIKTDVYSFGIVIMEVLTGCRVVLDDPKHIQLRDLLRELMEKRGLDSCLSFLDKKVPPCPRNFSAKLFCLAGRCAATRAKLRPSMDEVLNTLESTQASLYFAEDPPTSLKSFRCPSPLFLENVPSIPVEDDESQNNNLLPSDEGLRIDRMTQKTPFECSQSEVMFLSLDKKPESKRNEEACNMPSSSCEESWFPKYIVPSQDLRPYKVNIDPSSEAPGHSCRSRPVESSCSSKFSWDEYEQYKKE
UniProt O15264, sequence (whole entry, looked up): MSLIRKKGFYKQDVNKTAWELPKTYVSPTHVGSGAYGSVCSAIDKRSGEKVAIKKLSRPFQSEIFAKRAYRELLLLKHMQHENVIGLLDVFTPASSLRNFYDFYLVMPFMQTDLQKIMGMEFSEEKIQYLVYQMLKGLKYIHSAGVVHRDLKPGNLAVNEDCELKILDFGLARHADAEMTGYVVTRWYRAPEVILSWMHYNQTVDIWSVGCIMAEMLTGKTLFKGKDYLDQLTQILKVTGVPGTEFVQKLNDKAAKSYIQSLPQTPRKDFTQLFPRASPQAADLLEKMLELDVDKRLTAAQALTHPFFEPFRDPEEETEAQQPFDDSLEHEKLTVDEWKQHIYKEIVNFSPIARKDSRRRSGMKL

Set 1
Host: human
Matrix: microsomes or S9
Concentration: 2 µM
Time: 0.5 h
Measurement: remaining compound
SMILES = Clc1cccc(C2CC(c3cccs3)Nc3ncnn32)c1Cl (stereo not shown); value = 12.5%
SMILES = CN(Cc1nccs1)S(=O)(=O)c1ccc2c(c1)CN(S(C)(=O)=O)CC2; value = 28.7%
SMILES = Cc1cc(C)n2nc(C(=O)N3CCCC34CC=CC4)cc2n1; value = > 99.9%
SMILES = O=C1C2C3C=CC(O3)C2C(=O)N1Nc1ccccc1 (stereo not shown); value = 39%
SMILES = CNS(=O)(=O)c1cn(CC(=O)NCc2ccccc2OC)cc1S(=O)(=O)NC; value = 70.7%
SMILES = C=CCn1c(CN2C(=O)c3cccc4cccc(c34)C2=O)nnc1SCC(=O)OCC; value = 93.5%
SMILES = O=S(=O)(Cc1ccccc1)N1CC[C@H](c2ccccc2)[C@H]2NCCCC[C@H]21; value = 14.5%
SMILES = COc1cc(OC)c(NC(=O)N2Cc3c(sc4c3CCCC4)-n3cccc3C2C)cc1Cl (stereo not shown); value = < 1%
SMILES = O=C(Cn1nc2n(CCc3ccccc3)c(=O)c3ccccc3n2c1=O)Nc1ccc2c(c1)OCO2; value = 70.5%
SMILES = Cc1c(-c2nnc(Cc3ccccc3)o2)nnn1-c1ccc(C(C)C)cc1; value = 75.1%
SMILES = Cc1ccc(C(C)C)c(OCC(=O)NC2=NCC(=O)N2c2ccccc2)c1; value = < 1%
SMILES = CCOC(=O)c1[nH]c(=O)n(CCS(C)(=O)=O)c1C; value = 72.6%

Set 2
SMILES: CCC(=O)N[C@H]1CC[C@@H](C(=O)N(C)c2ccc(-c3nc4ccccc4o3)cc2)C1
Effect on: cell-free assay
Method: competition with immobilised ligand
Concentration: 1 µM
Measurement: remaining binding
target = MAPK13 (Homo sapiens, UniProt O15264); value = 85%
target = HIPK2 (Homo sapiens, UniProt Q9H2X6); value = 79%
target = MAP3K3 (Homo sapiens, UniProt Q99759); value = 89%
target = EGFR (Homo sapiens, UniProt P00533, del747-750/T751S); value = 100%
target = IKBKB (Homo sapiens, UniProt O14920); value = 90%
target = IRAK3 (Homo sapiens, UniProt Q9Y616); value = 85%
target = EGFR (Homo sapiens, UniProt P00533, L858R/T790M); value = 100%
target = PRKCQ (Homo sapiens, UniProt Q04759); value = 84%
target = NEK3 (Homo sapiens, UniProt P51956); value = 66%
target = RIOK1 (Homo sapiens, UniProt Q9BRS2); value = 99%
target = CSF1R (Homo sapiens, UniProt P07333); value = 93%
target = PIK3CA (Homo sapiens, UniProt P42336); value = 94%
target = TGFBR1 (Homo sapiens, UniProt P36897); value = 100%
target = CILK1 (Homo sapiens, UniProt Q9UPZ9); value = 70%
target = CLK2 (Homo sapiens, UniProt P49760); value = 95%
target = EPHB3 (Homo sapiens, UniProt P54753); value = 76%
target = CDC42BPA (Homo sapiens, UniProt Q5VT25); value = 87%
target = WNK1 (Homo sapiens, UniProt Q9H4A3); value = 100%

Set 3
SMILES: CC(C)n1cnc(-c2ccc(F)cc2)c1-c1ncc(C(=O)Nc2ccc(N3CCN(C)CC3)cc2)[nH]1
Method: phase 2a trial
Host: idiopathic pulmonary fibrosis patients
Measurement: patients with haematuria
dose = all arms pooled; notes = grade 2 emergent event; value = 0%
dose = all arms pooled; notes = grade 4 emergent event; value = 0%
dose = 60 mg once daily; notes = grade 5 emergent event; value = 0%
dose = 30 mg once daily; notes = grade 5 emergent event; value = 0%
dose = 30 mg once daily; notes = grade 3 emergent event; value = 0%
dose = 60 mg once daily; notes = grade 2 emergent event; value = 0%
dose = 60 mg once daily; notes = grade 3 emergent event; value = 0%
dose = 60 mg once daily; notes = grade 4 emergent event; value = 0%

Set 4
Target: Activated CDC42 kinase 1 (TNK2, Homo sapiens, UniProt Q07912)
UniProt Q07912, sequence (whole entry, looked up): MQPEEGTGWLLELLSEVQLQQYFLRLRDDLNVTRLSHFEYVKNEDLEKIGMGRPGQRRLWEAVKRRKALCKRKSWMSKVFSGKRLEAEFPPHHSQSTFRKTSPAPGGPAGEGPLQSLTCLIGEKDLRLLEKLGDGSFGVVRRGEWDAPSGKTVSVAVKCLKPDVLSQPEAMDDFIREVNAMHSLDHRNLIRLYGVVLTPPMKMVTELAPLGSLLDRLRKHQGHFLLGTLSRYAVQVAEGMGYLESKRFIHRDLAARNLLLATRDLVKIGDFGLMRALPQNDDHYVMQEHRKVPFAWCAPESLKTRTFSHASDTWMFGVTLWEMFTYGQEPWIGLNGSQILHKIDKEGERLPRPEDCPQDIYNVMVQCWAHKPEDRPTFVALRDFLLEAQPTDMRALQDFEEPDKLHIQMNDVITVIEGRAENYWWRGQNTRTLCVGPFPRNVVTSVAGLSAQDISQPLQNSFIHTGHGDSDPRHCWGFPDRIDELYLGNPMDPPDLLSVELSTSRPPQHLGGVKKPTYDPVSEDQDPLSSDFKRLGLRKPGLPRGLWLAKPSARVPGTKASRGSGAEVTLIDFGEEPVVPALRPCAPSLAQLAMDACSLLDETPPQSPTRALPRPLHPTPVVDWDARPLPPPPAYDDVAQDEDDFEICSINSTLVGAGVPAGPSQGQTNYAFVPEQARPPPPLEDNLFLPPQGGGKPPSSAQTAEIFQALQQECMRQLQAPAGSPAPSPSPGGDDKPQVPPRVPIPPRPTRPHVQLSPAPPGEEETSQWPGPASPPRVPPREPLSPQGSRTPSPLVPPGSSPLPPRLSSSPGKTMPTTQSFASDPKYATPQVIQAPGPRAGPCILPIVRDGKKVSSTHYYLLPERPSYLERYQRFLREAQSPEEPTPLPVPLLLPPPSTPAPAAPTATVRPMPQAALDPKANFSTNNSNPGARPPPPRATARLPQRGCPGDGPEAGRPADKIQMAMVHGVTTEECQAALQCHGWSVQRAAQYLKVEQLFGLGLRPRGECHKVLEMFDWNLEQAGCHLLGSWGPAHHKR
Effect on: enzyme activity
Mode: inhibitor
Concentration: 0.5 µM
Reference: control
Measurement: remaining activity
SMILES = c1ccc(-c2[nH]ncc2-c2ccnc3ccccc23)nc1; value = 96.2%
SMILES = C[C@@H]1CCN(C(=O)CC#N)C[C@@H]1N(C)c1ncnc2[nH]ccc12; value = 87.1%
SMILES = CCN(CC)CCNC(=O)c1c(C)[nH]c(/C=C2\C(=O)Nc3ccc(Cl)cc32)c1C; value = 22.6%
SMILES = Cn1nc2c3c(cccc31)C(=O)c1ccccc1-2; value = 83.3%
SMILES = CN(C)C[C@H]1CCn2c(c(C3=C(c4cn(C)c5ccccc45)C(=O)NC3=O)c3ccccc32)C1; value = 96.3%
SMILES = Cc1nc2cc3nc(-c4cccs4)cnc3cc2n1C; value = 100%
SMILES = Nc1cccc(-c2cc3c(Oc4cccc(O)c4)ncnc3[nH]2)c1; value = 19.6%
SMILES = O=c1cc(-c2cccc3c2Sc2ccccc2S3)oc(N2CCOCC2)c1; value = 95.7%
SMILES = CCN(CC)C(=O)c1ccc(Nc2nc(OCC3CCCCC3)c3[nH]cnc3n2)cc1; value = 21.4%
SMILES = Cc1cn(-c2cc(NC(=O)c3ccc(C)c(Nc4nccc(-c5cccnc5)n4)c3)cc(C(F)(F)F)c2)cn1; value = 82.6%
SMILES = Cc1cc2ncc(-c3ccccc3)nc2cc1C; value = 98.4%
SMILES = Ic1cccc(CSc2nnc(-c3ccncc3)o2)c1; value = 101%
SMILES = CCN(CC)CCNC(=O)c1c(C)[nH]c(/C=C2\C(=O)Nc3ccc(F)cc32)c1C; value = 64.1%
SMILES = O=C(Nc1cccc(Nc2nccc(Nc3cccc(C(F)(F)F)c3)n2)c1)C1CC1; value = 66.5%

For quick reference, copied from above (set 2):
target = PRKCQ (Homo sapiens, UniProt Q04759); value = 84%
target = CLK2 (Homo sapiens, UniProt P49760); value = 95%
target = IRAK3 (Homo sapiens, UniProt Q9Y616); value = 85%
target = CDC42BPA (Homo sapiens, UniProt Q5VT25); value = 87%
target = MAP3K3 (Homo sapiens, UniProt Q99759); value = 89%
target = TGFBR1 (Homo sapiens, UniProt P36897); value = 100%
target = IKBKB (Homo sapiens, UniProt O14920); value = 90%
